# Experimental data of several laboratories.
# A part holds a random share of what one study measured. Positions count from the first letter of the parent shown.

# Series 1
# Target: Histone acetyltransferase KAT6A, winged helix 2, GST fusion (KAT6A, Homo sapiens, UniProt Q92794, residues 85-181)
# Method: protein binding microarray
# Form: double-stranded DNA, one strand shown
# Medium: in vitro
# Concentration: not given
# Setting: 8-mer, flanks averaged, mean of 2 arrays, mostly near background
# Relative to: not given
# Direction: higher = stronger binding
# Residues (chain): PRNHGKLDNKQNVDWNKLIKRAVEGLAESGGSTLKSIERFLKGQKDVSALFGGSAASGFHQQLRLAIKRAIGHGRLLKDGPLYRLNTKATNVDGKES
Strand,E-score
ATTACAAC,-0.101
CTTTTTAA,0.0791
CACGGGCA,0.0736
ACGATTCG,0.0137
GACCAACA,0.0844
ACGATTGC,0.0334
GTTAGCGA,0.0339
AGATAGCA,0.0563
AGACATAT,-0.105
GAGCGGAA,0.0993
CCCGACGA,0.0651
AGTTGGGG,-0.0144
ACTACGTC,-0.108
GCCTAAAC,0.119
GCACTCGA,0.0575
AGGGACCG,0.111
GGCCAAAC,0.0889
AACACATG,0.0351
AAGTGCGT,-0.138
ACGTCGTA,-0.192
ACGAAGGG,0.15

# Series 2
# Target: Prothrombin, mature alpha-thrombin (F2, Homo sapiens, UniProt P00734)
# Method: aptamer microarray, sandwich
# Form: DNA with 2'F-ANA
# Medium: in vitro
# Concentration: 200 nM
# Setting: whole 15-mer aptamer, many near background
# Together with: Cy3 exosite-II aptamer, 400 nM
# Direction: higher = stronger binding
# Strand: GGTTGGTGTGGTTGG
Modification,mean fluorescence intensity [a.u.]
2'F-ANA at 1 2 3 4 6 8 13,123
2'F-ANA at 2 3 4 5 6 7 12 13 15,111
2'F-ANA at 1 2 8 13,155
2'F-ANA at 1 2 4 5 11 15,53.3
2'F-ANA at 1 5 7 11 13 15,48.3
2'F-ANA at 1 2 5 10 11 14 15,49.3
2'F-ANA at 3 5 7 10 14,54.9
2'F-ANA at 1 2 4 7 13,89.4
2'F-ANA at 1 3 5 6 8 9 10 11 15,51.5
2'F-ANA at 2 3 4 5 8 9 14,50.5
2'F-ANA at 1 2 4 5 6 9 10 11 13,47.8
2'F-ANA at 1 3 4 6 10 14,58.7
2'F-ANA at 1 2 4 6 7 10 12 14 15,46.9
2'F-ANA at 1 3 12 13 14,125
2'F-ANA at 1 2 3 4 5 7 9 12 13 14,48.4
2'F-ANA at 3 4 5 6 13 14,55.8
2'F-ANA at 7 8 11,580
2'F-ANA at 2 4 5 6 8 10 12 14 15,47.9
2'F-ANA at 2 6 7 13 14,130
2'F-ANA at 2 4 5 9 10 11 12 14,46.3
2'F-ANA at 7 8 9 10 13 14,131
2'F-ANA at 1 3 4 5 6 7 8 10,45.4
2'F-ANA at 3 4 5 7 9 12 13 14,120
2'F-ANA at 1 2 3 4 6 8 11 12 13 14,78.3
2'F-ANA at 1 3 8 11 13 14 15,88.8

# Series 3
# Target: CCNB1, cyclin fold, Cln2 fusion (human)
# Method: yeast growth competition, sequencing
# Medium: yeast
# Setting: weak parent motif
# Relative to: not given
# Direction: higher = stronger binding
# Starting sequence: CDC6 docking peptide (human); TLKGRRLVFDNQL
Substitution,normalised enrichment score
T1Q,-0.294
K3G,0.189
L7I,1.06
G4D,-0.102
R5H,-0.262
D10Q,0.493
L7V,0.14
T1K,0.224
N11C,0.937
L2G,0.297
L2Q,-0.0992
F9A,0.155
D10W,0.171
Q12P,0.42
T1P,-0.0834
R6M,0.828
V8H,0.715
R6W,-0.738
V8F,0.836
R5L,0.257
K3M,0.332
D10C,0.799
Q12I,0.675
D10A,-0.432
K3T,0.743

# Series 4
# Target: Centromere-binding protein 1, full length, His-tagged (CBF1, Saccharomyces cerevisiae, UniProt P17106, residues 1-351)
# UniProt P17106, sequence (whole entry, looked up): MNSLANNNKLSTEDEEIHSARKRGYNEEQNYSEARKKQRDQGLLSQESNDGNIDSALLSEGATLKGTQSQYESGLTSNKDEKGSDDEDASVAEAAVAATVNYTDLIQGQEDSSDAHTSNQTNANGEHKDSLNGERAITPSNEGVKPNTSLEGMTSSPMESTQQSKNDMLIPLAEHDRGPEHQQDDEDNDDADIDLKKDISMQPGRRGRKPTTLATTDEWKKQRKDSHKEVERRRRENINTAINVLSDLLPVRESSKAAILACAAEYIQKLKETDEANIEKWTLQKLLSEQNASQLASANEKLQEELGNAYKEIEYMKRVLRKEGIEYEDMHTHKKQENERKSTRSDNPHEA
# Method: competition protein-binding microarray
# Form: double-stranded DNA, one strand shown
# Medium: in vitro
# Concentration: 2 µM
# Setting: whole 60-bp probe, lowest competitor level
# Together with: Pho4 competitor, 0.05 µM
# Direction: higher = stronger binding
# Constant ends, left off below: … GTCTTGATTCGCTTGACGCTGCTG
Strand,fluorescence intensity
AGCAAAGGAGACTTAAACGTGAGAGAGACCTGGCCT,75.4 a.u.
CTAACGAAGGTTTGAAAAGTGGGTGACAAGCCAAGT,72.7 a.u.
TGGAGTTGTAAACGACATGTGAACCCTTAACACCAA,148 a.u.
AGTGTCCAACTTATTAAGGTGCGGGCGCCTGGCTTG,49.1 a.u.
CCGCCCGGTGCAATACACACGGCAAGCACTTTATCA,73.1 a.u.
CAGCATTAGCTAAAACACGTTAATATGGTGGAGTCA,79.8 a.u.
TTTATCGGTGCCGGCCACGTGGGTACCTCTTGCGAA,886 a.u.
CTAACGAAGGTTTTGCACGTGTTTTACAAGCCAAGT,2160 a.u.
CTAACGAAGGTTTGTCACATCACTTACAAGCCAAGT,84 a.u.
CTAGATGTCAAAAGGCTTGTGACAGTATGTGGAGAA,69.2 a.u.
ATCATACCACAGTACCCCGTGGAGTTAATGTTTAAC,108 a.u.
AGTTCTCGGACTTTTGACGTGCCAGTGCAATTATCC,92.1 a.u.
AAATTACTAAGTTGCACGGTGGGTGACGCCGTATGA,67.7 a.u.
TCTTTTTTTTATTTGCACGTGCATCGAGGGGATCGA,4220 a.u.
AAAGCGGTAATTTTTCACGTGGCGTCAAATATCTAT,1070 a.u.
TCTTGTTACATCCGTCACGGCATTCCAGCTGTAAAA,81.5 a.u.
TTTCCAAGCCGCCGTCACGGCTGAATACCTGGCCAA,66.6 a.u.
CGTCCTAGTGATTGTAGGGTGGGTGCCATGAGGAAG,84.3 a.u.
GTCTTGTCTCATTGACACGTGGGTGTCCCCACTTCA,938 a.u.
AGGACGAGAAACAAGCACATGATGTGTGTCGAAAAA,390 a.u.
CGTCCTAGTGATTGTTCTGTGGGTGCCATGAGGAAG,72 a.u.
ATGATGTTGCATTTGCACGTGTTTTGTTGTACCTCT,1770 a.u.
GGCTCAAAGAGATCTCACGTGGTCGGAGTATGAACG,1950 a.u.
TCCCAAGACCATACCCACGATGAAATTAAAGACACT,89.5 a.u.

# Series 5
# Target: RING finger protein unkempt homolog, zinc fingers 1-6, GST-SBP tag (UNK, Homo sapiens, UniProt Q9C0B0, residues 30-357)
# UniProt Q9C0B0, sequence (30-357, looked up): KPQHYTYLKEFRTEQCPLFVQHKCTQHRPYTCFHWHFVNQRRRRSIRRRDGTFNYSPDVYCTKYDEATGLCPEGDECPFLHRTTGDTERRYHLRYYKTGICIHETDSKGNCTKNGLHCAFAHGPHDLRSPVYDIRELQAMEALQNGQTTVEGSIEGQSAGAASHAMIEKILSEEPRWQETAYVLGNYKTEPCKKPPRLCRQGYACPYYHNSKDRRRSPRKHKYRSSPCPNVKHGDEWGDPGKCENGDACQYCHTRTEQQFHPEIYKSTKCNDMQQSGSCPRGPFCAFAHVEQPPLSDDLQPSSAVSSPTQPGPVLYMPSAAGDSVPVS
# Method: RNA Bind-n-Seq
# Form: RNA
# Medium: in vitro
# Concentration: not given
# Setting: RNA with constant flanks, human and mouse sites, ends assumed
# Relative to: input RNA pool
# Direction: higher = stronger binding
# Constant ends, left off below: GGGAGUUCUACAGUCCGACGAUC … CAACAGAGGAUUGAGCAUCA
Strand,bound/input enrichment
AUUUUUAGUAAAUGCAAGUAAGAACAUCAUCAAAGUUCACUUUGUAUUGUACCCUGUAAAACUGUGUGUUUGUGUGCUUUCAAAGAUGUUGGGAUUUUAUUUAUCUGGGGACAGUGUGUA,0.62 ratio
CAGACCUUUGUGCCCCUGUGCACAUUUGGAAGCUAAAAUGUACAUCGUUGUCUGAAAAAACCCAACCCCAAAACCUUCAUCUGAUUGGUGAGCUGAAGUCUGUCCUUGCACCAUGUUAUC,0.354 ratio
GAUAUUUGUAAAUAAAGGUAGAAAUAUUAGAUCCAUUUCUGCAGAACUUACUGUACAGUUUAGUUGGAGUGUAGCACUGAAGAACUGUCAGCUCAGCGUUGACUGAGGAGAUAGUGAAAA,0.92 ratio
CAGAGGGUGCAACAGUUACAAGGAGUUUACAACUUGCAAGAACAGCACUUCUGGACACUCUGUUCUGAUGUUUACGUGGGAACCUUGAAGCUCGUGGUAGCCCCUGAUGCUGACGCCAGG,0.106 ratio
AGGUUAACUCUGAGAGCCAUCAAACUGUGGGCCAAACGGCACAACAUCUAUUCCAAUAUAUUAGGUUUCCUCGGUGGUGUUUCCUGGGCUAUGCUAGUAGCAAGAACUUGCCAGCUUUAU,0.465 ratio
GAGGAUGCCCUGUUUAUGUUUGAGUAUUUUAAGCCCAAGACCCUCCCUGAAUUUGAUAGCUACAAGACAAGCACUGUUUCUGCUGACUUGGCAAACCUGUUGAAGAGAAUUGCUACCAUU,0.548 ratio
GAAGUACGACCUGUAGUGGUGCCAAAACUCCCUUCUAUGGAUGCAAGAACAGACAGAUCAUCAGACAGAAAAGGAAGCAGUUACAAGGGGAGAGAAGUGUUGGAUGGAAGACAGGUUGUU,0.395 ratio
GACGAUGUCAUACAGCGCAAGAGGGAGCUGUGGCCACCUGAGAAGCUUCAAGAGAUAGAGGAAUUCAAAGAGAGGUUACGGAAGCGGCGGGAGGAGAAGCUCCUUCGCGACGCCCAGCAG,0.174 ratio
GACAUUUCAAAAACAGGAGAAUAUUUACGAGUUAAACUACCACUAAAUCCAACUGCUAGGGAAUUUCAACCAGAUGUAAAGUCUGAAGCACUGUCUGAGGAUGUGAAGUCCAUACCAGGA,0.15 ratio
CCAUUCCAAAAUAAACAACUGAAACCAAAACAGCCUCCCAAACCACCACAGAUUCACUAUUGUGAUGUUUGUAAGAUCAGCUGUGCUGGACCACAGACUUAUAAAGAACAUUUAGAAGGA,0.457 ratio
UUUUCUUUUGGAGGUGGAUUAUUUGAUGACAUGUUUGAAGAUAUGGAGAAAAUGUUUUCUUUUAGUGGUUUUGACUCUACCAAUCAGCAUACAGUACAGACUGAAAAUAGAUUUCAUGGA,0.332 ratio

# A few entries again (series 4):
Strand,fluorescence intensity
CTAACGAAGGTTTGAAAAGTGGGTGACAAGCCAAGT,72.7 a.u.
AGGACGAGAAACAAGCACATGATGTGTGTCGAAAAA,390 a.u.
AAATTACTAAGTTGCACGGTGGGTGACGCCGTATGA,67.7 a.u.
TCCCAAGACCATACCCACGATGAAATTAAAGACACT,89.5 a.u.
AGTGTCCAACTTATTAAGGTGCGGGCGCCTGGCTTG,49.1 a.u.
CGTCCTAGTGATTGTTCTGTGGGTGCCATGAGGAAG,72 a.u.
CTAACGAAGGTTTGTCACATCACTTACAAGCCAAGT,84 a.u.
TTTATCGGTGCCGGCCACGTGGGTACCTCTTGCGAA,886 a.u.
CTAACGAAGGTTTTGCACGTGTTTTACAAGCCAAGT,2160 a.u.
CAGCATTAGCTAAAACACGTTAATATGGTGGAGTCA,79.8 a.u.
AAAGCGGTAATTTTTCACGTGGCGTCAAATATCTAT,1070 a.u.
